Measurements collected from several papers.
Each line is one published result; not all experiments were run side by side. Several values in a cell are separate wells, animals, samples, runs or records. Numbers after ± are the reported error.
PFF0160c E182D: Dihydroorotate dehydrogenase (quinone), mitochondrial (PFF0160c, Plasmodium falciparum, UniProt Q08210, E182D)
ACHE: Acetylcholinesterase (ACHE, Homo sapiens, UniProt P22303)
Chain of UniProt P22303 (whole entry, looked up): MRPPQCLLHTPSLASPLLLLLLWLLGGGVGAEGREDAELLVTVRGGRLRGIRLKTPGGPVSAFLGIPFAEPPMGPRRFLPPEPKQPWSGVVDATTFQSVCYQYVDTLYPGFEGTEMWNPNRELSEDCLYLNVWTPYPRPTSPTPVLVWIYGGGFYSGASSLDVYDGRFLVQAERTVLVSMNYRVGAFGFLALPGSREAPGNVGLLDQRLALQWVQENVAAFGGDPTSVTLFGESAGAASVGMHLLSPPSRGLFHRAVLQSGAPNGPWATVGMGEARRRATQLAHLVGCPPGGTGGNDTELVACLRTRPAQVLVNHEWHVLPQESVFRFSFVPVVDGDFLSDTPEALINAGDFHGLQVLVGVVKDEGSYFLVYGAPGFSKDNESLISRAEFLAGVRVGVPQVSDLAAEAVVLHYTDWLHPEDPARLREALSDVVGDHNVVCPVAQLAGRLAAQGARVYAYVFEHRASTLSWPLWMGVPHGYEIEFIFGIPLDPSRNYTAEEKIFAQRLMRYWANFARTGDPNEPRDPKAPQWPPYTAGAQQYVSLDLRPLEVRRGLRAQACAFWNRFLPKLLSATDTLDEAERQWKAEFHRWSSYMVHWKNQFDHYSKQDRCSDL
Chain of UniProt Q62666 (whole entry, looked up): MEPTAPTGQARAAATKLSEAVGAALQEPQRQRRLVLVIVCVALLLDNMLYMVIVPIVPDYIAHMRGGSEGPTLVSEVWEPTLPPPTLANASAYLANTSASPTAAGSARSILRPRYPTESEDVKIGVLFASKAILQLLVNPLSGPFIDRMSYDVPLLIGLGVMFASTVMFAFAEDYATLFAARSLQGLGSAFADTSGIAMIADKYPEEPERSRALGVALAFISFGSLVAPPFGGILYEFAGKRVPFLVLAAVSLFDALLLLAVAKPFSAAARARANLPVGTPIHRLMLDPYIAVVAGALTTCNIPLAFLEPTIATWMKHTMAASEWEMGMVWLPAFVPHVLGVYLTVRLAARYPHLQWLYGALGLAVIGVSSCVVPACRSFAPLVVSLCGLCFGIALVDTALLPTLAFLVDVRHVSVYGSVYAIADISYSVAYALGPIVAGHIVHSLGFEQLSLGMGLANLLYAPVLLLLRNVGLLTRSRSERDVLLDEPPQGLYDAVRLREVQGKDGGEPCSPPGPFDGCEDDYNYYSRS
Chain of UniProt Q13224 (whole entry, unmodified, looked up): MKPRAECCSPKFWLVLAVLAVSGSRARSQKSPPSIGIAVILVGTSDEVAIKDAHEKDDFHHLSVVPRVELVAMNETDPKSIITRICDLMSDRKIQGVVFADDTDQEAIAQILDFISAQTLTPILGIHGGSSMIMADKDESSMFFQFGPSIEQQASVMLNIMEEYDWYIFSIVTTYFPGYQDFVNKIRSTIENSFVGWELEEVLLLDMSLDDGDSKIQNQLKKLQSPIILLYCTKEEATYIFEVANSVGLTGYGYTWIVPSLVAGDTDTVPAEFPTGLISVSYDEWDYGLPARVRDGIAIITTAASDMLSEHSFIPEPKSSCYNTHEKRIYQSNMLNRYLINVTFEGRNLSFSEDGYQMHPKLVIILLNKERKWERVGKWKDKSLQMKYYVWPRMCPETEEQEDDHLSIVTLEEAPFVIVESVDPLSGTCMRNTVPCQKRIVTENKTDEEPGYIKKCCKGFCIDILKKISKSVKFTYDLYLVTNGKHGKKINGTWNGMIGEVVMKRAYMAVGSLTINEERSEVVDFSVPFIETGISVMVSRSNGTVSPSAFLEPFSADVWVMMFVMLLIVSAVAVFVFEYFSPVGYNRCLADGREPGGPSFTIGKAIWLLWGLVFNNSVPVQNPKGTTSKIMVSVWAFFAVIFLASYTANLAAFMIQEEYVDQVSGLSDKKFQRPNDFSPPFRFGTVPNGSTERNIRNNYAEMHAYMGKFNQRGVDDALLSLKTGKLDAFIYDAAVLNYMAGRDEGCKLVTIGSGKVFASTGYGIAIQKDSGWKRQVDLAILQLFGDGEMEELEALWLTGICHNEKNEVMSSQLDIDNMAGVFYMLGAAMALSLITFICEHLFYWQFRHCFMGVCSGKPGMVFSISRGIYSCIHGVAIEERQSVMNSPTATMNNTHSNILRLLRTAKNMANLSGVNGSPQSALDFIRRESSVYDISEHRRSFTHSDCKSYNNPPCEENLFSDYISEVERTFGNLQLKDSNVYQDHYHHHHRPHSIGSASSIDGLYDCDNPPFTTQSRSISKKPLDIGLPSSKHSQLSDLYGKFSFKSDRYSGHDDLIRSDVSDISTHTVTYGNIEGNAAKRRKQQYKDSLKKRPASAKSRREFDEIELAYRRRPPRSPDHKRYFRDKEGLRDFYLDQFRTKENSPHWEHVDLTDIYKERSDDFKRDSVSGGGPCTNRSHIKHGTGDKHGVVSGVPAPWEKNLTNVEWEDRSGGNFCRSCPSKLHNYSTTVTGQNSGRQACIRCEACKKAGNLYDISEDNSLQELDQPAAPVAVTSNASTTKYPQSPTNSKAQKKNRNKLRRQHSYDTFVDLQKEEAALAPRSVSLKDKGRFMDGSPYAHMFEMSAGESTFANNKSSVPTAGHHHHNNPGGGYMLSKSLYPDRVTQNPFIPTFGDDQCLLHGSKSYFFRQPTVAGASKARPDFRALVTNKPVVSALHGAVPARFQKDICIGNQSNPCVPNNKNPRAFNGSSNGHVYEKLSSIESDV
Chain of UniProt Q9UGM1 (whole entry, looked up): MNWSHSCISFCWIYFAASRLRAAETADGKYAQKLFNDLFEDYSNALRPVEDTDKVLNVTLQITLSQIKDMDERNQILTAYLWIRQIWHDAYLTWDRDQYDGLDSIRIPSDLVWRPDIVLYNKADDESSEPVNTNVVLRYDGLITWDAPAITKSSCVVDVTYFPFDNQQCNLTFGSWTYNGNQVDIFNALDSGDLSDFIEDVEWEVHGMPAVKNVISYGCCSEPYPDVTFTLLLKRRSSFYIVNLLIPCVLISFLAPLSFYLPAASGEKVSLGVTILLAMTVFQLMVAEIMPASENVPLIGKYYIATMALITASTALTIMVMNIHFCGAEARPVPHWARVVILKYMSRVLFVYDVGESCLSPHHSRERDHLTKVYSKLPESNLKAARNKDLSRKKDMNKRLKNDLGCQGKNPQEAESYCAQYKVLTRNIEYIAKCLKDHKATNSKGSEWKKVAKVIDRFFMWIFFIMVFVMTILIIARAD
Chain of UniProt Q9LK43 (whole entry, looked up): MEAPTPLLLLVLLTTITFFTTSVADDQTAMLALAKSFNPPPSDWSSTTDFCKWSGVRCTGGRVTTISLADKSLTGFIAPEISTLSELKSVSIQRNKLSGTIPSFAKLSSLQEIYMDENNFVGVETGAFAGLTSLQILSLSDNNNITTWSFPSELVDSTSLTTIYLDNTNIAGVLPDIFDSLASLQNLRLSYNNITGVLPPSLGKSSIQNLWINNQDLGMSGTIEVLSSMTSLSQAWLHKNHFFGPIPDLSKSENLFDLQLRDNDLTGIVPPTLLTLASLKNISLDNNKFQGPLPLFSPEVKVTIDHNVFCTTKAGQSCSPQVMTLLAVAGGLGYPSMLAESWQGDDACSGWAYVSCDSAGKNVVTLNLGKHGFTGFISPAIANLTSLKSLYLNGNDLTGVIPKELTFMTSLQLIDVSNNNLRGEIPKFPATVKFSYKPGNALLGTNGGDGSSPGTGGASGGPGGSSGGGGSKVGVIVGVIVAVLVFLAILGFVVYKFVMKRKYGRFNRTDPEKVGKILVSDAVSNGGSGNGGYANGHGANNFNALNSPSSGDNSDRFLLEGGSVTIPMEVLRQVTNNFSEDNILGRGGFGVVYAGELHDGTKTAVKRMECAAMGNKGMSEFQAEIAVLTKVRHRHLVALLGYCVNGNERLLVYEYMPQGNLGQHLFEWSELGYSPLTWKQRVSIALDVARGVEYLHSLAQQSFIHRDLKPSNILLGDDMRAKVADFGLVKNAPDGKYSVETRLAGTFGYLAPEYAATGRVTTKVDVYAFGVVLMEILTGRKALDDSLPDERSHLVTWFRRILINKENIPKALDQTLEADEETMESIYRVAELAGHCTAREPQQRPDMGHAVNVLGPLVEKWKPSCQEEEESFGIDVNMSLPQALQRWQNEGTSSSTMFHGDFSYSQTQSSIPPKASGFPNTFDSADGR
Chain of UniProt P00942 (whole entry, unmodified, looked up): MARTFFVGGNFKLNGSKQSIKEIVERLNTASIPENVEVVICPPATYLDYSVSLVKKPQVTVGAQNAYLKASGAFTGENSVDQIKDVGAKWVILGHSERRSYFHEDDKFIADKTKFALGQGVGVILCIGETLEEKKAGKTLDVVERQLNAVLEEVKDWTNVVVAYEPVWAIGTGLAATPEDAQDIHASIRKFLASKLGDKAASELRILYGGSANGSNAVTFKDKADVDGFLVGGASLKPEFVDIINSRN
Chain of UniProt P43088 (whole entry, looked up): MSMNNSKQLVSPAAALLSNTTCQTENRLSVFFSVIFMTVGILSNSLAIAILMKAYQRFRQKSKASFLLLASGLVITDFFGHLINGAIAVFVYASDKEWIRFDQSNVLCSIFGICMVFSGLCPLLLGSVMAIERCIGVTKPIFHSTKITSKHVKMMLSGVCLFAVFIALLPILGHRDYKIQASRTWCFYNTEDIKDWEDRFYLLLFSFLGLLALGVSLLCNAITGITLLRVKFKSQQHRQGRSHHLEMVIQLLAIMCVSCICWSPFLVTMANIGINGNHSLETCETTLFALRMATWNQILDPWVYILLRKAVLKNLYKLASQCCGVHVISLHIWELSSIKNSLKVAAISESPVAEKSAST
Chain of UniProt P36873 (whole entry, unmodified, looked up): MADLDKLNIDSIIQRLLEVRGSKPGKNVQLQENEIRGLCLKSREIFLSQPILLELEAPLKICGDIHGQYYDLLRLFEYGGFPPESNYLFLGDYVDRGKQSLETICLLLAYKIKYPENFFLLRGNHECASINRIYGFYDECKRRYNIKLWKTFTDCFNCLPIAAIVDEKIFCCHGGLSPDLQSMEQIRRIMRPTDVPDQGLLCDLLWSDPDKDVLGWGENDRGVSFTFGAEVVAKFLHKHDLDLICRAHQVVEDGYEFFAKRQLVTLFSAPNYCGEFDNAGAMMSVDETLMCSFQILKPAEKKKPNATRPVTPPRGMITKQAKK

| Compound | target | test | test system | setting | scale | endpoint | value |
| --- | --- | --- | --- | --- | --- | --- | --- |
| COC(=O)[C@@]1(O)C[C@H]2O[C@]1(C)n1c3ccccc3c3c4c(c5c6ccccc6n2c5c31)C(=O)NC4 | MAPK3 (Homo sapiens, UniProt P27361) | ADP-Glo | – | 24.6 µM, with: substrate MBP | – | remaining activity | 113% |
| C[C@H]1CN(c2n[nH]c3nc(N[C@H]4CC[C@H](NS(=O)(=O)CCC(F)(F)F)CC4)ncc23)CCO1 | Isoleucine--tRNA ligase, cytoplasmic (Homo sapiens, UniProt P41252) | Kinobeads competition, item: IARS | – | 0.16 µM, unit not given | relative to: vehicle | remaining binding | 0.96 |
| COc1ccccc1NC(=O)CSc1nc2cccnc2n1-c1ccccc1OC | PFF0160c E182D | enzyme activity, DCIP colorimetric | – | – | relative to: E182D mutant over wild type | IC50 ratio | 0.4 |
| O=[N+]([O-])c1ccc(O[C@@H]2O[C@H](CO)[C@H](O)[C@H](O)[C@H]2O)cc1 | Beta-galactosidase (lacZ, Escherichia coli K-12, UniProt P00722) | substrate | – | – | – | Km | 40 ± 4 µM |
| Cc1ccc2c(c1)c1c(n2CCc2ccc(C)nc2)CCN(C)C1 | ACHE | – | biochemical | concentration not given | – | activity class | inactive |
| [2H]c1c([2H])c([C@]2([2H])CCCN2C(=O)C(C)(C)Oc2ccc3cn[nH]c3c2)c([2H])c([2H])c1C([2H])([2H])[2H] | Non-receptor tyrosine-protein kinase TYK2, JH1 domain (TYK2, Homo sapiens, UniProt P29597) | KINOMEscan | – | 1 µM | relative to: DMSO control | remaining binding | 97% |
| CC(C)[C@@H](O)CC[C@@H](C)[C@H]1CC[C@H]2[C@@H]3CC=C4C[C@@H](O)CC[C@]4(C)[C@H]3CC[C@]12C | Glutamate NMDA receptor; GRIN1/GRIN2B (GRIN1/GRIN2B, Homo sapiens, UniProt Q05586+Q13224, Q556A) | positive allosteric modulator, two-electrode voltage clamp | Xenopus oocytes expressing GluN1-Q556A | 10 µM, 0.02% cremophor, with: 100 µM glutamate and glycine | relative to: without compound | current response | 120 ± 1.2% |
| Nc1ncc(-c2nc(N3CCOCC3)nc(N3CCOCC3)n2)c(C(F)F)n1 | L-type calcium channel, dihydropyridine site | radioligand binding, antagonist ligand | – | 10 µM | relative to: control | remaining binding | 98.5% |
| Cc1nc2ccccc2n1[C@@H]1C[C@H]2CC[C@@H](C1)N2Cc1nccn1-c1ccccc1.O=C(O)C(F)(F)F | PFF0160c E182D | enzyme activity, DCIP colorimetric | – | – | relative to: E182D mutant over wild type | IC50 ratio | 10.4 |
| C[N+](C)(C)[C@@H](Cc1c[nH]c(=S)[nH]1)C(=O)[O-] | Ergothioneine transport permease/ergothioneine binding protein EgtU, substrate-binding domain (egtU, Helicobacter pylori, UniProt B5Z7I3, S297F) | ITC | – | 30 °C, substrate-binding domain | – | ΔH | -3.4 ± 0.281 kcal/mol |
| Cc1oc(-c2ccccc2)nc1CCOc1cccc2c1ccn2CCC(=O)O | Fatty acid-binding protein, intestinal (Homo sapiens, UniProt P12104, T55A) | binding, affinity selection mass spectrometry | – | 100 nM, pooled screen | relative to: other proteins | fold change | 32.5 |
| COc1nc(NCC(C)C)nc(Oc2ccc(=O)n(Cc3ccccc3)n2)n1 | PFF0160c E182D | enzyme activity, DCIP colorimetric | – | – | relative to: E182D mutant over wild type | IC50 ratio | 37 |
| OC1Cc2ccccc2CC1N1CCC2(C=Cc3cc(F)ccc32)CC1 (racemic) | Vesicular acetylcholine transporter (Rattus norvegicus, UniProt Q62666) | – | – | – | relative to: Ki sigma1 over Ki VAChT | selectivity ratio | 1.3 |
| Oc1ccc2ccc3cccc4ccc1c2c34 | Aryl hydrocarbon receptor (Danio rerio, UniProt Q9YGV3) | reporter gene, agonist, luciferase reporter | ZF-4 | 1111.11 µM | relative to: vehicle control | fold change | 1.66 |
| CC12CCC(CC1)C(C)(C)O2 | 1,8-cineole 2-endo-monooxygenase (cinA, Citrobacter braakii, UniProt Q8VQF6, Y81F) | NADPH consumption, substrate | – | 200 µM, pH 7.8, room temperature, Y81F variant, 50 mM Tris, with: Fpr and Cdx | – | kcat | 2.77 ± 0.152 s⁻¹ |
| CC(=O)c1cnc2ccc(-c3cc(Cl)c(O)c(Cl)c3)nc2c1N[C@H]1CC[C@H](CN(C)C)CC1 | Receptor-like kinase TMK4 (TMK4, Arabidopsis thaliana, UniProt Q9LK43) | binding, SPR | – | concentration not given | relative to: FER | fold change of KD | 38.3 |
| CC(C)(Cc1c[nH]c2ccccc12)NCC(O)COc1ccccc1C#N (centres unmarked) | ACHE | – | biochemical | concentration not given | – | activity class | inactive |
| Nc1nc2c(ncn2[C@@H]2O[C@H](COP(=O)(O)OP(=O)(O)OP(=O)(O)O)[C@@H](O)[C@H]2O)c(=O)[nH]1 | GTP 3',8-cyclase (moaA, Staphylococcus aureus, UniProt P69848, R266A) | isothermal titration calorimetry | – | concentration not given, 25 °C, R266A mutant, anaerobic | – | binding enthalpy | -6.2 ± 0.5 kcal/mol |
| COc1ccc(N2C(=O)N(c3c(C)cccc3Cl)Cc3cnc(Nc4ccc(C5CCN(C)CC5)cc4OC)nc32)nc1 | RPS6KA5 (Homo sapiens, UniProt O75582) | kinase activity, inhibitor | – | 0.5 µM, MSK1 | – | inhibition | 10% |

| Compound | target | test | test system | setting | scale | endpoint | value |
| --- | --- | --- | --- | --- | --- | --- | --- |
| CC(=O)N[C@H](C(=O)N1C[C@H](O)C[C@H]1C(=O)NCc1ccc(-c2scnc2C)cc1)C(C)(C)SCCCCCCNC(=O)C[C@@H]1N=C(c2ccc(Cl)cc2)c2c(sc(C)c2C)-n2c(C)nnc21 | Bromodomain-containing protein 2, BD1 (BRD2, Homo sapiens, UniProt P25440, K107A/Q101K/V106E) | ITC | – | 25 °C, BD1 KEA mutant, binary | – | −TΔS | 5 ± 1 kcal/mol |
| COc1ccc2c3c([nH]c2c1)CCN(C)CC3.O=C(O)/C=C/C(=O)O | Neuronal acetylcholine receptor; alpha9/alpha10 (Homo sapiens, UniProt Q9GZZ6+Q9UGM1) | ion current, inhibitor, two-electrode voltage clamp | Xenopus laevis oocytes | with: 6 µM acetylcholine | – | Hill coefficient | 2.2 ± 0.2 |
| Cl.Cl.O=c1cc(NCCCNCc2scc(I)c2I)[nH]c2ccccc12 | PFF0160c E182D | enzyme activity, DCIP colorimetric | – | – | relative to: E182D mutant over wild type | IC50 ratio | 3.6 |
| Nc1ccn([C@@H]2O[C@H](COP(=O)(O)OP(=O)(O)OP(=O)(O)O)[C@@H](O)[C@H]2O)c(=O)n1 | pyrG (Escherichia coli, UniProt P0A7E5, C268A) | enzyme activity | – | with: UTP 0.20 mM | – | Hill coefficient | 1.5 ± 0.1 |
| CC[C@H](C)[C@H](NC(=O)CNC(=O)[C@@H](N)CCCCN)C(=O)N[C@@H](CC(C)C)C(=O)N[C@@H](CCCCN)C(=O)N[C@@H](CCCNC(=N)N)C(=O)N[C@@H](CCC(=O)O)C(=O)N[C@@H](CCCCN)C(=O)N[C@@H](CCCNC(=N)N)C(=O)N[C@@H](CC(C)C)C(=O)N[C@@H](CCCNC(=N)N)C(=O)N[C@@H](CCCNC(=N)N)C(=O)N[C@@H](CCCCN)C(=O)N[C@@H](CC(N)=O)C(=O)N[C@H](C(=O)N[C@@H](Cc1c[nH]cn1)C(=O)N[C@@H](Cc1c[nH]c2ccccc12)C(=O)N1CCC[C@H]1C(=O)N[C@@H](CCC(=O)O)C(=O)N[C@@H](CCC(=O)O)C(=O)NCC(=O)N[C@@H](CCCCN)C(=O)N[C@@H](CC(C)C)C(=O)N[C@@H](CCCNC(=N)N)C(=O)N[C@@H](CCC(=O)O)C(=O)N[C@@H](Cc1ccc(O)cc1)C(=O)N[C@@H](Cc1ccccc1)C(=O)N[C@@H](Cc1ccc(O)cc1)C(=O)N[C@@H](Cc1ccccc1)C(=O)N[C@@H](CCC(=O)O)C(=O)N[C@@H](CC(C)C)C(=O)N[C@@H](CC(=O)O)C(=O)N[C@@H](CCC(=O)O)C(=O)N[C@@H](C)C(=O)N[C@@H](CCC(=O)O)C(=O)N[C@@H](CCCNC(=N)N)C(=O)N[C@H](C(=O)N[C@@H](CC(N)=O)C(=O)N[C@H](C(=O)O)C(C)C)C(C)C)C(C)C | Serine/threonine-protein phosphatase PP1-gamma catalytic subunit (Homo sapiens, UniProt P36873) | ITC | – | 25 °C | – | −TΔS | -22.9 ± 9.5 kcal/mol |
| CN1CCN(c2cc(-c3ccncc3)c(-c3ccc4ccccc4c3)nn2)CC1 | LPAR5 (Homo sapiens, UniProt Q9H1C0) | agonist, FLIPR | – | 12.5 µM | – | activation | 12.2% |
| CCOC(=O)COc1ccc2c(=O)c3ccccc3oc2c1 | ache (Electrophorus electricus, UniProt O42275) | enzyme activity | – | 0.84 µM, with: substrate 6.90 mM | higher = faster reaction | reaction velocity | 0.0035 a.u. |
| O=C(Nc1cnccc1Cl)N1CCN(Cc2ccc3c(c2)OC(F)(F)O3)CC1 | atrial natriuretic factor receptor | – | – | concentration not given | – | inhibition | 2% and -4% |
| N[C@H](C(=O)O)c1cc(=O)[nH]o1 | uncharacterized protein (Ixodes scapularis, UniProt A0A0N9E2I2) | agonist, two-electrode voltage clamp | Xenopus oocytes | unit not given | relative to: 1 mM L-glutamate | Imax | 0.5 ± 0.05 |
| O=C(CSc1nnc(O)n1Cc1ccccc1)Nc1ccccc1-c1ccccc1 | PFF0160c E182D | enzyme activity, DCIP colorimetric | – | – | relative to: E182D mutant over wild type | IC50 ratio | 1.4 |
| N[C@@H](CO)COP(=O)(O)O | Cj1438c (Campylobacter jejuni, UniProt Q0P8H6) | substrate inhibition, PK/LDH coupled | – | pH 8.0, 25 °C, with: D-glucuronate 10 mM, ATP 3.0 mM | – | Ki | 16 ± 3 mM |
| COc1cc(N)c(Cl)cc1C(=O)NC1CN2CCC1CC2 (centres unmarked) | GPRC5C (Homo sapiens, UniProt Q9NQ84) | β-arrestin recruitment, TANGO luminescence | – | concentration not given | relative to: basal luminescence | log2 fold change | 0.298 |
| O=C(c1ccc(Cl)cc1)N1CCN2C(=O)N(OC(=O)N3CCOc4ccccc43)C(=O)C2C1 (centres unmarked) | PPIA (Homo sapiens, UniProt P62937) | MS-based ABPP | SW-620 conditioned medium | 10 µM, 1 h, 37 °C | relative to: compound over DMSO, lower = more inhibition | median protein ratio | 1.21 |
| CCOC(=O)CC(SP(=O)(OC)OC)C(=O)OCC (centres unmarked) | uncharacterized protein (Anopheles coluzzii, UniProt A0A6E8VQK1) | enzyme activity, inhibitor | Sf9 cell homogenate | 45.87 µM, 0.1667 h, with: α-naphthyl acetate substrate | relative to: no inhibitor | remaining activity | 2.26% |
| CCC1=C[C@@H]2CN3CCc4c([nH]c5ccccc45)[C@@](C(=O)OC)(C2)[C@@H]13 | Nuclear receptor subfamily 2 group C member 2, ligand-binding domain (Homo sapiens, UniProt P49116) | SPR imaging | – | 600 nM | – | koff | 2.6e-07 s⁻¹ |
| O=C(Nc1cccnn1)N1CCC(=Cc2cccc(Oc3ccc(C(F)(F)F)cn3)c2)CC1 | PTGFR (Homo sapiens, UniProt P43088) | radioligand binding, inhibitor | – | 10 µM, human, with: [3H]PGF2alpha | – | inhibition | 24% |
| Nc1ncnc2c1ncn2[C@@H]1O[C@H](COP(=O)(O)OP(=O)(O)NP(=O)(O)O)[C@@H](O)[C@H]1O | Cell cycle histidine kinase CckA, G318A; cytoplasmic region (Caulobacter vibrioides, UniProt Q9X688, G318A) | ITC | – | 12 °C, without c-di-GMP | – | -TΔS | -1.2 kcal/mol |
| O=C(O)COP(=O)(O)O | TPI1 (Saccharomyces cerevisiae, UniProt P00942, Y208F) | enzyme activity, competitive inhibitor, GPDH/NADH-coupled | – | pH 5.7, 25 °C, ionic strength 0.1 NaCl, with: glyceraldehyde 3-phosphate substrate | relative to: mutant over wild type | Ki ratio | 7730 |
| S=C(SSC(=S)N1CCCCC1)N1CCCCC1 | ACHE | – | biochemical | concentration not given | – | activity class | inactive |

Some of these lines once more:
| Compound | target | test | test system | setting | scale | endpoint | value |
| --- | --- | --- | --- | --- | --- | --- | --- |
| COc1ccc(N2C(=O)N(c3c(C)cccc3Cl)Cc3cnc(Nc4ccc(C5CCN(C)CC5)cc4OC)nc32)nc1 | RPS6KA5 (Homo sapiens, UniProt O75582) | kinase activity, inhibitor | – | 0.5 µM, MSK1 | – | inhibition | 10% |
| CC(=O)N[C@H](C(=O)N1C[C@H](O)C[C@H]1C(=O)NCc1ccc(-c2scnc2C)cc1)C(C)(C)SCCCCCCNC(=O)C[C@@H]1N=C(c2ccc(Cl)cc2)c2c(sc(C)c2C)-n2c(C)nnc21 | Bromodomain-containing protein 2, BD1 (BRD2, Homo sapiens, UniProt P25440, K107A/Q101K/V106E) | ITC | – | 25 °C, BD1 KEA mutant, binary | – | −TΔS | 5 ± 1 kcal/mol |
| COc1ccc2c3c([nH]c2c1)CCN(C)CC3.O=C(O)/C=C/C(=O)O | Neuronal acetylcholine receptor; alpha9/alpha10 (Homo sapiens, UniProt Q9GZZ6+Q9UGM1) | ion current, inhibitor, two-electrode voltage clamp | Xenopus laevis oocytes | with: 6 µM acetylcholine | – | Hill coefficient | 2.2 ± 0.2 |
